# Assay results from different studies.
# Compare with care: the assays were run in different laboratories. Numbers after ± are the reported error.
SMILES,target or system,test,system,setting,how to read,measurement,result
O=C(Nc1cccc(C(=O)N2CCC(c3nc(-c4ccccc4)n[nH]3)CC2)c1)c1ccccc1,,,CD-1 mouse liver microsomes,"pH 7.4, with: NADPH",,half-life,0.29 h
O=C=Nc1cc(C(F)(F)F)cc(C(F)(F)F)c1,,"chemical stability, HPLC-MS",BBS buffer with acetonitrile,pH 10.2,,half-life,< 0.0167 h
CCC[C@H]1C(=O)N(C)[C@@H](CCC)C(=O)N[C@@H](CC(C)C)C(=O)N[C@@H](Cc2ccc(O)cc2)C(=O)N[C@@H](CC(=O)O)C(=O)N[C@@H](CC(=O)O)C(=O)N[C@H](C(N)=O)CCCCNC(=O)CCCC(=O)N[C@@H](CCSC)C(=O)N[C@@H](C(C)C)C(=O)N[C@@H](CS)C(=O)N1C,,,"human serum, delipidated, reconstituted","238 µM, 37 °C",,half-life,~93.3 h
CC(C)Cn1cc(Cc2cccc(OC(C)(C)C(=O)O)c2)c2cc(F)c(C(=O)N[C@@H](C)c3cccc(C(C)(C)C)c3)cc21,,,mouse liver microsomes,"1 µM, with: microsomes 1 mg/mL",,half-life,> 1 h
O=Cn1nnc2ccccc21,,"chemical stability, HPLC-MS",borate buffered saline,"pH 10.2, no N-acetyl-lysine",,half-life,150 h
Cc1c(Cc2ccc(F)c(OC(C)C(=O)O)c2)c2ccc(C(=O)NC(C)c3ccc(C(C)(C)C)cc3)cc2n1CC1CCC1 (centres unmarked),,,mouse liver microsomes,"1 µM, with: microsomes 1 mg/mL",,half-life,> 1 h
O=Cc1ccc2cccc(O)c2n1,,"chemical stability, HPLC-MS",borate buffered saline,"pH 10.2, no N-acetyl-lysine",,half-life,114 h
CCOC(=O)[C@H](CCCNC(N)=O)NC(=O)[C@H](Cc1c[nH]c2ccccc12)NC(=O)[C@@H]1CCCCN1C(=O)[C@H](Cc1ccccc1)N(C)C(=O)CCl,,MALDI MS,PaTu 8988t conditioned DMEM,10 µM,,half-life,22.6 h
CC1CC(C)CN(CCOCCSc2ccccc2)C1 (centres unmarked),Trypanosoma cruzi,"reporter mRNA translation, inhibitor, refers to: capped polyadenylated Renilla luciferase mRNA",cell-free extract,concentration not given,baseline: control RNA,relative translation,107%
Cc1c(Cc2ccc(F)c(OC(C)C(=O)O)c2)c2ccc(C(=O)NC(C)c3ccc(C(C)(C)C)cc3)cc2n1CC(C)C (centres unmarked),,,mouse liver microsomes,"1 µM, with: microsomes 1 mg/mL",,half-life,> 1 h
COc1ccc(-c2nc(CC(=O)NC(c3nc4ccccc4[nH]3)C(C)C)cs2)cc1OC (centres unmarked),,,,"oral, 25 mg/kg",,half-life,1.7 ± 0.4 h
Cc1c(Cc2ccc(Cl)c(O[C@@H](C)C(=O)O)c2)c2ccc(C(=O)N[C@@H](C)c3cc(F)cc(C(C)(C)C)c3)cc2n1C,,,human liver microsomes,"1 µM, with: microsomes 1 mg/mL",,half-life,> 1 h
CCN(CC)c1ccc2c(c1)O[B-]1(c3ccccc3C#N)OC(=O)C(c3ccccc3)=N[N+]1=C2CC(C)C (centres unmarked),,,DMEM with ammonium acetate,"10 µM, pH 7, 2% DMSO, cell-free",,half-life,128 h
CCCC/C=C/C(=O)N[C@@H](Cc1cc(F)cc(F)c1)C(=O)N[C@@H]1C(=O)N2CCC[C@H]2C(=O)N2CC[C@H](C)C[C@H]2C(=O)N[C@@H](C)C(=O)N2CCC[C@H]2C(=O)O[C@H]1C,,"H-D exchange, 1H NMR, refers to: alanine amide hydrogen",CD3OD,25 °C,,half-life,19.7 h
Cc1ccc(SCCOCCN2CC(C)OC(C)C2)cc1.Cl (centres unmarked),Trypanosoma cruzi,"reporter mRNA translation, inhibitor, refers to: capped polyadenylated Renilla luciferase mRNA",cell-free extract,concentration not given,baseline: control RNA,relative translation,107%
O=C1CCC(N2Cc3c(NC(=O)OCc4cc(C(=O)O)ccc4OP(=O)(O)O)cccc3C2=O)C(=O)N1 (centres unmarked),,,HBSS,"10 µM, 2 h incubation, pH 6.5",,half-life,> 2 h
Cc1c(Cc2cc(F)cc(OC(C)(C)C(=O)O)c2)c2ccc(C(=O)N[C@@H](C)c3cc(F)cc(C(C)(C)C)c3)cc2n1CC1CCC1,,,human liver microsomes,"1 µM, with: microsomes 1 mg/mL",,half-life,0.767 h
C/C(N)=N/C(=N\S(=O)(=O)c1ccc(C(F)(F)F)cc1)N1C[C@H](c2ccccc2)C(c2ccc(Cl)cc2)=N1,,,rat liver cytosol,,,half-life,1.95 h
Cc1c(Cc2cccc(OC(C)(C)C(=O)O)c2)c2ccc(C(=O)N[C@@H](C)c3cccc(C(C)(C)C)c3)cc2n1C(C)C,,,human liver microsomes,,,half-life,0.679 h
Cc1noc(C)c1Br,,,,pH 7.4,,half-life,837 h

# For quick reference, copied from above:
SMILES,target or system,test,system,setting,how to read,measurement,result
Cc1noc(C)c1Br,,,,pH 7.4,,half-life,837 h
O=C(Nc1cccc(C(=O)N2CCC(c3nc(-c4ccccc4)n[nH]3)CC2)c1)c1ccccc1,,,CD-1 mouse liver microsomes,"pH 7.4, with: NADPH",,half-life,0.29 h
Cc1c(Cc2ccc(F)c(OC(C)C(=O)O)c2)c2ccc(C(=O)NC(C)c3ccc(C(C)(C)C)cc3)cc2n1CC1CCC1 (centres unmarked),,,mouse liver microsomes,"1 µM, with: microsomes 1 mg/mL",,half-life,> 1 h
